Experimental data of several laboratories.
Protocols differ between the studies behind these lines. Several values in a cell are separate wells, animals, samples, runs or records. Numbers after ± are the reported error.
HTR1D: 5-hydroxytryptamine receptor 1D (HTR1D, Homo sapiens, UniProt P28221)
Cgas: Cyclic GMP-AMP synthase (Cgas, Mus musculus, UniProt Q8C6L5)
Kcnc1: Voltage-gated potassium channel KCNC1 (Kcnc1, Mus musculus, UniProt P15388)
LRRC8A: LRRC8A (Homo sapiens, UniProt Q8IWT6)

SMILES	tested on	test	system	setting	scale	quantity	value
COc1cccc(OC[C@@H]2CN(CCN3CCc4ccccc43)CCO2)c1	HTR1D	radioligand binding	–	concentration not given, with: [3H]5-CT	–	inhibition	55.6%
Cc1nn(-c2nc3ccc(Cl)c(Cl)c3[nH]2)c(O)c1C1OC(=O)c2ccccc21 (centres unmarked)	Cgas	enzyme activity, inhibitor, pyrophosphatase-coupled	–	2 µM, 1.5 h, mouse enzyme	–	inhibition	99.5%
OCCCN1CC[C@@H]2C[C@H]1c1cc(-c3ccc(C(F)(F)F)cc3)ccc12	HTR1D	radioligand binding, PDSP competition binding	–	10 µM	–	inhibition	< 50%
C[C@H]1[C@H](OC(=O)CCC(=O)O)O[C@@H]2O[C@@]3(C)CC[C@H]4[C@H](C)CC[C@@H]1[C@@]24OO3	Non-structural polyprotein pORF1, helicase domain (Hepatitis E virus genotype 1, UniProt P33424)	ATPase activity, inhibitor, colorimetric	–	9.7 µM, with: ATP 100 µM	–	inhibition	17.1%
COc1c(C#N)ccnc1N1C2CCC1CN(C(=O)c1cccnc1-n1cccn1)C2	GABA	binding	–	10 µM	–	inhibition	-18.1%
CC1=NN(c2cc(Cl)ccc2Cl)C(=O)C1=NNc1ccc(S(N)(=O)=O)cc1	bovine α-glucosidase	enzyme activity, inhibitor, glucose oxidase	–	200 µg/mL, with: maltose	–	inhibition	35.1%
NC(=O)c1ccc[n+]([C@@H]2O[C@H](COP(=O)([O-])OP(=O)(O)OC[C@H]3O[C@@H](n4cnc5c(N)ncnc54)[C@H](OP(=O)(O)O)[C@@H]3O)[C@@H](O)[C@H]2O)c1	–	binding, MIDAS equilibrium dialysis LC-MS	A2AR-BRIL thermostabilized	concentration not given	relative to: no-protein control	log2 fold change	-0.287
CC(=O)c1ccc(-c2cccc(NC(=O)CCc3cccc4c3B(O)OC4)c2)cc1	Cleavage and polyadenylation specificity factor subunit 3 (Cpsf3, Mus musculus, UniProt Q9QXK7)	pre-mRNA cleavage	mouse nuclear extract	25 µM	relative to: DMSO	inhibition	31%
CC(C)C[C@H](NC(=O)C[C@H](O)[C@H](CC(C)C)NC(=O)[C@H](Cc1c[nH]cn1)NC(=O)CNC(=O)[C@@H](NC(=O)[C@H](C)NC(=O)[C@H](Cc1c[nH]c2ccccc12)NC(=O)[C@H](CCC(N)=O)NC(=O)[C@@H](Cc1ccccc1)NC(=O)COCCOCCNC(=O)CN1CCN(CC(=O)O)CCN(CC(=O)O)CCN(CC(=O)O)CC1)C(C)C)C(N)=O [lutetium-177 labelled]	–	–	female BALB/c nu/nu mice, muscle	intravenous, 50 pmol, 24 h	–	tissue uptake	0.007 ± 0.002 %ID/g
Cc1nc(Nc2ncc(C(=O)Nc3c(C)cccc3Cl)s2)cc(N2CCN(CCO)CC2)n1	ERBB2 (Homo sapiens, UniProt P04626)	kinase activity, inhibitor, Kinase-Glo MAX	–	100 µM	–	inhibition	95.5%
c1ccc(-c2nc(N3CCC(c4ccccn4)C3)c3ccccc3n2)nc1 (centres unmarked)	panel of 300 kinases	TR-FRET binding	–	1 µM, across all kinases	–	inhibition	< 50%
O=c1c(O)cc([C@H]2Oc3cc(O)cc(O)c3C[C@H]2O)cc2c([C@H]3Oc4cc(O)cc(O)c4C[C@H]3O)cc(O)c(O)c12	alpha-amylase	enzyme activity, inhibitor, DNS method	–	10 µg/mL, with: soluble starch	–	inhibition	7.02%
O=C(C[C@@H](C(F)F)n1ccc(F)n1)N1CCC(O)(Cn2cnc3c(cnn3-c3ccc(F)cc3)c2=O)CC1	USP7 (Homo sapiens, UniProt Q93009, V517F)	enzyme activity, inhibitor	–	0.05 µM	–	inhibition	8.68% and 13.3%
CC1=NN(c2cccc([N+](=O)[O-])c2)C(=O)C1=NNc1ccc(S(N)(=O)=O)cc1	bovine α-glucosidase	enzyme activity, inhibitor, glucose oxidase	–	500 µg/mL, with: maltose	–	inhibition	54%
Cc1ccc(C(=O)Nc2ccc3ccccc3c2)o1	Kcnc1	ion current, whole-cell patch-clamp	–	10 µM	–	inhibition	15.2%
CCCC[C@H](NC(=O)[C@H](C)c1c(C)[nH]c2ccc(O)cc12)c1ncc(-c2cc3ccccc3nc2OC)[nH]1	MCHR1 (Homo sapiens, UniProt Q99705)	–	–	10 µM	–	inhibition	51%
Cc1nn(-c2nc3c(F)cc(F)cc3s2)c(O)c1C(c1cccc(C(F)(F)F)c1)c1c(C)nn(-c2nc3c(F)cc(F)cc3s2)c1O	CGAS (Homo sapiens, UniProt Q8N884)	enzyme activity, inhibitor, pyrophosphatase-coupled	–	100 µM, 1.5 h, with: HT-DNA	–	inhibition	79.7%
C#Cc1cc(-c2cc(Nc3nc(N[C@@H](C)c4ccc(F)cn4)ncc3Cl)n[nH]2)ccc1C=O	PNCK (Homo sapiens, UniProt Q6P2M8)	enzyme activity, inhibitor	–	0.2 µM	–	inhibition	19.8%
CN(C(=O)n1cnc(-c2ccc[n+]([O-])c2)c1)C1CCCCC1	HTR1D	receptor binding	–	10 µM, subtype 5HT1D	–	inhibition	14.9%
COc1cc2c(cc1OC)C(=O)N(CCCCN1CCN(c3ccccc3OC)CC1)C2	HTR1D	radioligand binding	–	concentration not given, with: [3H]5-CT	–	inhibition	87.6%
Cn1cc(-c2ccc(-c3cncc(Cl)c3N3CCC4(CCNC4=O)CC3)cc2)cn1	COLO 205	microarray, measured: WWTR1	–	concentration not given, 2 h, gene set TAZ	relative to: untreated cells	fold change in expression	-1.97
Cc1c(-c2ccccc2)oc2c(C(=O)OCCN3CCCCC3)cccc2c1=O	LRRC8A	endogenous hypotonicity-induced current	HEK293	30 µM	–	inhibition	78.3 ± 2%
COc1cc(C2=CCCCc3c2ccc(OC)c3OC(C)c2cnc([N+](=O)[O-])n2C)cc(OC)c1OC (centres unmarked)	tubulin	colchicine binding	–	5 µM, with: 5.0 µM [3H]colchicine	–	inhibition	25 ± 3%
CN1CCN(c2cc(-c3ccncc3)c(-c3ccc4ccccc4c3)nn2)CC1	GLP2R (Homo sapiens, UniProt O95838)	antagonist, FLIPR	–	10 µM	–	inhibition	54.2%
CC(C)c1noc2ncc(C(=O)c3ccccc3O)cc12	Kcnc1	ion current, inhibitor, whole-cell patch clamp	–	10 µM	–	inhibition	1.44% and 0% and 0.76% and 2.66%

SMILES	tested on	test	system	setting	scale	quantity	value
CCc1oc2ccccc2c1C(=O)c1cc(Br)c(O)c(Br)c1	SLC22A12 (Homo sapiens, UniProt Q96S37, Y152F)	urate uptake	HEK293T	0.5 µM, 10 min, 37 °C, with: 200 µM [14C]urate	–	inhibition	89.3% and 90.3% and 90.1% and 84.2% and 84% and 80.3%
Cc1c(-c2ccccc2)oc2c(C(=O)O)cccc2c1=O	LRRC8A	ion current, inhibitor	HEK293	30 µM, with: hypotonic stimulation	–	inhibition	~46%
CNc1cccc2cc(C(=O)Nc3ccc(C(=O)O)cc3)c(=O)[nH]c12	IKK	kinase activity, inhibitor	–	10 µM	–	inhibition	5.3%
CC1=NCCNC(=O)C1=NNc1ccc(S(N)(=O)=O)cc1	bovine α-glucosidase	enzyme activity, inhibitor, glucose oxidase	–	10 µg/mL, with: maltose	–	inhibition	40.052 ± 0.000699%
O=C(CN1CCO[C@H](COc2ccccc2)C1)N1CCc2ccccc21	HTR1D	radioligand binding	–	concentration not given, with: [3H]5-CT	–	inhibition	10.2%
CC1=NN(c2ccccn2)C(=O)C1=NNc1ccc(S(N)(=O)=O)cc1	bovine α-glucosidase	enzyme activity, inhibitor, glucose oxidase	–	50 µg/mL, with: maltose	–	inhibition	36.2%
Cc1cc2c(cc1N1C(=O)c3cccc4c(CCCO)ccc(c34)C1=O)n(C)c(=O)n2C (racemic)	KAT2B (Homo sapiens, UniProt Q92831)	binding, BROMOscan binding	–	1000 nM	–	inhibition	71%
COc1cc(-c2cc(C(C)=O)n3ccccc23)cc(OC)c1Cn1ccnc1	CREBBP (Homo sapiens, UniProt Q92793)	–	–	1 µM	–	inhibition	20.5%
CC1=NN(c2ccc(F)cc2)C(=O)C1=NNc1ccc(S(N)(=O)=O)cc1	bovine α-glucosidase	enzyme activity, inhibitor, glucose oxidase	–	500 µg/mL, with: maltose	–	inhibition	42.4%
COc1ccccc1N1CCN(CCCCN2CCc3ccccc3C2=O)CC1	HTR1D	radioligand binding	–	concentration not given, with: [3H]5-CT	–	inhibition	88%
Cc1ncc(C[n+]2csc(CCOP(=O)(O)O)c2C)c(N)n1	–	binding, MIDAS equilibrium dialysis LC-MS	A2AR-BRIL thermostabilized	concentration not given	relative to: no-protein control	log2 fold change	-0.0397
O=C(NO)c1ccc(CN2CCCCc3ccccc32)c(F)c1	HRH3 (Homo sapiens, UniProt Q9Y5N1)	radioligand binding, radioligand displacement	–	10 µM	–	inhibition	52%
COc1cccc(OC[C@@H]2CN(CC(=O)N3CCc4ccccc43)CCO2)c1	HTR1D	radioligand binding	–	concentration not given, with: [3H]5-CT	–	inhibition	17.2%
CC[C@@H]1[C@H](F)C(=O)N[C@@H]1COc1nccc2cc(C(N)=O)c(OC)cc12	CSNK1A1 (Homo sapiens, UniProt P48729)	ATP probe binding, KiNativ profiling, measured: Lys2 probe site	THP-1 cell lysate	0.2 mM	–	inhibition	-3.6%
CN1CC(Oc2cnc(C#N)cc2-c2ccn3nc(NC(=O)C4CC4)cc3c2)C1	CDC42BPB (Homo sapiens, UniProt Q9Y5S2)	inhibitor, KinaseProfiler panel	–	1 µM	–	inhibition	22%
O=C(CN1CCO[C@@H](COc2ccccn2)C1)N1CCc2ccccc21	HTR1D	radioligand binding	–	concentration not given, with: [3H]5-CT	–	inhibition	1.2%
NC/C(=C\F)COc1cccc(Cn2c(=S)[nH]c(=O)c3[nH]cnc32)c1	Amine oxidase [copper-containing] 3 (Rattus norvegicus, UniProt O08590)	–	rat adipose tissue	0.0041 µM	–	inhibition	37%
CC1=NN(c2cccc(C)c2)C(=O)C1=NNc1ccc(S(N)(=O)=O)cc1	bovine α-glucosidase	enzyme activity, inhibitor, glucose oxidase	–	10 µg/mL, with: maltose	–	inhibition	28.682 ± 0.000696%
CCN1/C(=C/C(C)=O)Sc2ccc(F)cc21	L-type calcium channel Dihydropyridine site, rat	radioligand binding	–	concentration not given	–	inhibition	0%
CC1=NOC(=O)C1=NNc1ccc(S(N)(=O)=O)cc1	bovine α-glucosidase	enzyme activity, inhibitor, glucose oxidase	–	500 µg/mL, with: maltose	–	inhibition	45.5%
O=C(Nc1cccc2c(=O)cc(-c3nnn[nH]3)oc12)c1ccc(OCCCCc2ccccc2)cc1	LRRC8A/LRRC8C (Homo sapiens, UniProt Q8IWT6+Q8TDW0, L134K/L136K)	ion current, whole-cell patch clamp	HCT LRRC8-/- cells	3 µM, -100 mV, L134K/L136K heteromers	–	inhibition	54% and 67.4% and 76.2% and 54.1% and 70.3% and 66.2%
Cn1cc(-c2cnc3ccc(NC(=O)Nc4ccc(F)c(Br)c4)cc3n2)cn1	MAP3K6 (Homo sapiens, UniProt O95382)	kinase binding, KiNativ profiling, measured: Lys2 peptide	PANC-1 lysate	2.5 µM	–	inhibition	1.5%
CC1=NNC(=O)C1=NNc1ccc(S(N)(=O)=O)cc1	bovine α-glucosidase	enzyme activity, inhibitor, glucose oxidase	–	100 µg/mL, with: maltose	–	inhibition	38%
Cc1ccnc(C)c1OC[C@H]1CN(CCN2CCc3ccccc32)CCO1	HTR1D	radioligand binding	–	concentration not given, with: [3H]5-CT	–	inhibition	34.5%
Cc1nn(-c2nc3c(F)cc(F)cc3s2)c(O)c1C(c1ccc(C(F)(F)F)cc1)c1c(C)nn(-c2nc3c(F)cc(F)cc3s2)c1O	Cgas	enzyme activity, inhibitor, pyrophosphatase-coupled	–	50 µM, 1.5 h, mouse enzyme	–	inhibition	99.5%

A few entries again:
SMILES	tested on	test	system	setting	scale	quantity	value
Cn1cc(-c2ccc(-c3cncc(Cl)c3N3CCC4(CCNC4=O)CC3)cc2)cn1	COLO 205	microarray, measured: WWTR1	–	concentration not given, 2 h, gene set TAZ	relative to: untreated cells	fold change in expression	-1.97
CNc1cccc2cc(C(=O)Nc3ccc(C(=O)O)cc3)c(=O)[nH]c12	IKK	kinase activity, inhibitor	–	10 µM	–	inhibition	5.3%
c1ccc(-c2nc(N3CCC(c4ccccn4)C3)c3ccccc3n2)nc1 (centres unmarked)	panel of 300 kinases	TR-FRET binding	–	1 µM, across all kinases	–	inhibition	< 50%
CCc1oc2ccccc2c1C(=O)c1cc(Br)c(O)c(Br)c1	SLC22A12 (Homo sapiens, UniProt Q96S37, Y152F)	urate uptake	HEK293T	0.5 µM, 10 min, 37 °C, with: 200 µM [14C]urate	–	inhibition	89.3% and 90.3% and 90.1% and 84.2% and 84% and 80.3%
CN1CCN(c2cc(-c3ccncc3)c(-c3ccc4ccccc4c3)nn2)CC1	GLP2R (Homo sapiens, UniProt O95838)	antagonist, FLIPR	–	10 µM	–	inhibition	54.2%
